Assay results from different studies.
Parts stem from different laboratories: compare values within a part only. Values joined by “and” are separate records of one study, mostly repeats; a detail may differ.
UniProt P10721, sequence (whole entry, unmodified, looked up): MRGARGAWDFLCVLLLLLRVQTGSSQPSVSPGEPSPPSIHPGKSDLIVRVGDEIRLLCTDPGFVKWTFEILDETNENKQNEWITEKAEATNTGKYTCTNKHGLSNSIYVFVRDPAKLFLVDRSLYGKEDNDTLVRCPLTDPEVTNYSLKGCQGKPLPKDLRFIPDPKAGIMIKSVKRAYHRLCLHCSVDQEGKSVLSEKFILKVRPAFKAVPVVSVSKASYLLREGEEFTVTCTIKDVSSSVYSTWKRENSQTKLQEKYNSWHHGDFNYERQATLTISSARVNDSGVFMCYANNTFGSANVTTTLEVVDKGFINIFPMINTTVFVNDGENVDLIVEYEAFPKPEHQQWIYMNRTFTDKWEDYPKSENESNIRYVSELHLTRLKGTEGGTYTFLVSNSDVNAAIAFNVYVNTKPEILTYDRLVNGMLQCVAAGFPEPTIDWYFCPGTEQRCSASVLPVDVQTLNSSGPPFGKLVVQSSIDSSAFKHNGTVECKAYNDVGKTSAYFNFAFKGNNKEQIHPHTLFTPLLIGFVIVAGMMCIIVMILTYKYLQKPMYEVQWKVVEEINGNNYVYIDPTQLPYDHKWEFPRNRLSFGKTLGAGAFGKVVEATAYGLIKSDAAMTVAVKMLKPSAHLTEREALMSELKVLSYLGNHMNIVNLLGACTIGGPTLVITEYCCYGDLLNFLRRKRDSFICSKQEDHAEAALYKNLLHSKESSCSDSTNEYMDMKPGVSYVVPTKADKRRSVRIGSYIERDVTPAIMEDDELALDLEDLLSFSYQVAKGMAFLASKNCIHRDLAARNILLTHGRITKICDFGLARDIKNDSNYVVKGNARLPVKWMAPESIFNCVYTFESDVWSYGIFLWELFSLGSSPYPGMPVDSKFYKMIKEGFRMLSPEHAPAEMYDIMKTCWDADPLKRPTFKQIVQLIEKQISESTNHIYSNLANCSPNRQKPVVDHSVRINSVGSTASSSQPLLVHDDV
UniProt P35626, sequence (whole entry, looked up): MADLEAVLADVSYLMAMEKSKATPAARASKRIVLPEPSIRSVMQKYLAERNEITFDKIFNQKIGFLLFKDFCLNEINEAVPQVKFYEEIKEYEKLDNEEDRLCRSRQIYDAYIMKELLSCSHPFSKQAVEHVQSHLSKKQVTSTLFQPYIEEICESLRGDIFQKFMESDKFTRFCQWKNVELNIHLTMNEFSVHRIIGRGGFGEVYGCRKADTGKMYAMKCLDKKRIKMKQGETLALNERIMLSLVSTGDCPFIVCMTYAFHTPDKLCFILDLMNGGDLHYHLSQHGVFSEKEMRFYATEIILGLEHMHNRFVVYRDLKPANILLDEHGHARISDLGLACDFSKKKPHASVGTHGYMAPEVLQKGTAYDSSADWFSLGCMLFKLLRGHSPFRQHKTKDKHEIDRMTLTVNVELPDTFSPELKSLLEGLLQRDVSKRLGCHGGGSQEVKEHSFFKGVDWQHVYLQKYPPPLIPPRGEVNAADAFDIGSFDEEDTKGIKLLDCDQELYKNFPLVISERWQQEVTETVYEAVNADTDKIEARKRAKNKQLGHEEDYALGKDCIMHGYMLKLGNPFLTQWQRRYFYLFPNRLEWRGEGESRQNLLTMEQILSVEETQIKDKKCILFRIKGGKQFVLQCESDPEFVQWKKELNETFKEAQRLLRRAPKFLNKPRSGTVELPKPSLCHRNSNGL
UniProt P36897, sequence (whole entry, looked up): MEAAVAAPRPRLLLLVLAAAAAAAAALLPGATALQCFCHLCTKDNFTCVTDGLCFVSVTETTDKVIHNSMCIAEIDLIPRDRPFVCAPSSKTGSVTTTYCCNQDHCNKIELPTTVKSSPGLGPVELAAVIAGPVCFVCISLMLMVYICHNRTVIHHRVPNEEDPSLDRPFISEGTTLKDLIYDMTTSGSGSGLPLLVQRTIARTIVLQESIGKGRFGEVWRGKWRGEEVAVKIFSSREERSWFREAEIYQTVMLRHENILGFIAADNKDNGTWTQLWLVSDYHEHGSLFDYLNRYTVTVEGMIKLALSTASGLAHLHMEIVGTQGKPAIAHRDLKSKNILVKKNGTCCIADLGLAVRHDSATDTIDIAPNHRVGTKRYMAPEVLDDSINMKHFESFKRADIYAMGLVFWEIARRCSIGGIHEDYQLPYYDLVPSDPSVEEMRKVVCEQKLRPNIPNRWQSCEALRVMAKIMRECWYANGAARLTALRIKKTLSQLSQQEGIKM
UniProt P45984, sequence (whole entry, looked up): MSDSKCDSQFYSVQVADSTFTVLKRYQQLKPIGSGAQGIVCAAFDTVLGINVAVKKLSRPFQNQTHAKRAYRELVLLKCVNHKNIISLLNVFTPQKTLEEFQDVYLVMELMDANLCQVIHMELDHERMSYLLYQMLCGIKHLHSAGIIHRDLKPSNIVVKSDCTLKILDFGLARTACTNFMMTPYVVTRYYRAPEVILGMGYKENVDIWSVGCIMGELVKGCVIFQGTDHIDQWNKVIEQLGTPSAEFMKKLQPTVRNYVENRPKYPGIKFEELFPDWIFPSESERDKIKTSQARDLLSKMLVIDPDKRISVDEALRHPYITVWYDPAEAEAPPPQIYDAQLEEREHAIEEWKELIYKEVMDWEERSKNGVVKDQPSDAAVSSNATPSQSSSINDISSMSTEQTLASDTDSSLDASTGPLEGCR
UniProt P07948, sequence (whole entry, looked up): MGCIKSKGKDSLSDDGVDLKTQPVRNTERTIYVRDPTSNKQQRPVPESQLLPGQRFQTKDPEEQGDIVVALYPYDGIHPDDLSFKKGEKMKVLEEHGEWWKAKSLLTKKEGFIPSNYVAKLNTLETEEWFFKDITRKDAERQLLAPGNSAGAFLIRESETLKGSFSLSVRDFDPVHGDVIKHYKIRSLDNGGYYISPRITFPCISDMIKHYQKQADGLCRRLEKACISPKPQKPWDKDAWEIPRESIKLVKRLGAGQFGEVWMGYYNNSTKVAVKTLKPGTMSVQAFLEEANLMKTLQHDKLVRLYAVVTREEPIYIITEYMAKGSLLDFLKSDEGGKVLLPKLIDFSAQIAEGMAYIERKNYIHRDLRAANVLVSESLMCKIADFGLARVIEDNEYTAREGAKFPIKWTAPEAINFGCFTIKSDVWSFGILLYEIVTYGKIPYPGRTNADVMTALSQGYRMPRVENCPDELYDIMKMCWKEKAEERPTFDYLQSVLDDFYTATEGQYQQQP
UniProt P80192, sequence (whole entry, looked up): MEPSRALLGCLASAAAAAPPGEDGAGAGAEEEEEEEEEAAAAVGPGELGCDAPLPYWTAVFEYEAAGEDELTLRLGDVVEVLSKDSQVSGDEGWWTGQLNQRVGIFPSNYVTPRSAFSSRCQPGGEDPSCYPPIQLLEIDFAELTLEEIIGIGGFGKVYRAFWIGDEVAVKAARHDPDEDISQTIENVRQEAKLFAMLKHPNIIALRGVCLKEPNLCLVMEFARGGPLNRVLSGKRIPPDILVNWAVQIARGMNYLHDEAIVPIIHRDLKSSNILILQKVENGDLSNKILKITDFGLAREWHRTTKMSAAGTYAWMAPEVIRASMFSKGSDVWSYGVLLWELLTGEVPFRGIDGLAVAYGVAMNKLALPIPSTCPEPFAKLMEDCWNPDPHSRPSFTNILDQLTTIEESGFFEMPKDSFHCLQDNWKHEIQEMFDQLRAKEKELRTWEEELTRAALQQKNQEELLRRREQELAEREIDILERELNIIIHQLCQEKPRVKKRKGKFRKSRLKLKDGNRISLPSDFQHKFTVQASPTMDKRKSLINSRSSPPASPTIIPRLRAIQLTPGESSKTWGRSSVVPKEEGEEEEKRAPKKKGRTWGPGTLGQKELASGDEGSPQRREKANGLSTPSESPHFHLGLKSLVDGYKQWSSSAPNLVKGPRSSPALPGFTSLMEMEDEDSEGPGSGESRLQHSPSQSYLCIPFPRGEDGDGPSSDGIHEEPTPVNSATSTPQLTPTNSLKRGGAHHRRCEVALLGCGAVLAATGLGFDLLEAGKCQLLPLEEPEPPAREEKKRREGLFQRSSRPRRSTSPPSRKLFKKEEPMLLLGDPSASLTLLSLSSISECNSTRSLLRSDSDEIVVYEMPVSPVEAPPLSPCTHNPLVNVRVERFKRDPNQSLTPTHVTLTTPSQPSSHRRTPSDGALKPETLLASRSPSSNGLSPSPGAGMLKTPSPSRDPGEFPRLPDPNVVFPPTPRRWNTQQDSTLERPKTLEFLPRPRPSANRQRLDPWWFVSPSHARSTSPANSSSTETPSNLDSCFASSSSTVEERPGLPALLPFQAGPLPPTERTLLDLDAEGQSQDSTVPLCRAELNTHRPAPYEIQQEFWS
UniProt P05771, sequence (whole entry, looked up): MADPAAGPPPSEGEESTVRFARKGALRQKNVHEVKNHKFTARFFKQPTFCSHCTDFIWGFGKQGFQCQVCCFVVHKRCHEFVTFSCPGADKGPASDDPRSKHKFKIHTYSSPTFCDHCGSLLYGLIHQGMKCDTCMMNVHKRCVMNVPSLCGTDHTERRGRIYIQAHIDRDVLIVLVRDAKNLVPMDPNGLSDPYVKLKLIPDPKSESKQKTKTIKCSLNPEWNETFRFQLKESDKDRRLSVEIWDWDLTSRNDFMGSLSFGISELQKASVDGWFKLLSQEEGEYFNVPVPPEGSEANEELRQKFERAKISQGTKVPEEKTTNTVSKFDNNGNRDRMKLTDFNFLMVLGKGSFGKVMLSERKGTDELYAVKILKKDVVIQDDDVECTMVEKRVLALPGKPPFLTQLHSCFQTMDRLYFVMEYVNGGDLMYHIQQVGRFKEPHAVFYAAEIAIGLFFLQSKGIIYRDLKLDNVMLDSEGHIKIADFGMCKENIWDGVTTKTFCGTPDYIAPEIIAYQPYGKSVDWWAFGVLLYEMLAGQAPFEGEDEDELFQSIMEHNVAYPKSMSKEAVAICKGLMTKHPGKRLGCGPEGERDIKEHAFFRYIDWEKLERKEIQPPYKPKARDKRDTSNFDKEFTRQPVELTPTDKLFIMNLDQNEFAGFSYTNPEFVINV

Sample 1
Compound: c1ccc2c(-c3nn4c(-c5ccncc5)nnc4s3)c[nH]c2c1
| tested on | assay | test system | conditions | scale | enzyme activity |
| --- | --- | --- | --- | --- | --- |
| L444P/L444P Gaucher fibroblasts | 4-MUG hydrolysis in lysate |  | 0.5 µM, 72 h | relative to: vehicle | 191% and 183% and 188% and 182% and 205% and 196% and 160% and 166% |
| wild-type human fibroblasts | GCase activity, 4-MUG hydrolysis lysate |  | 0.5 µM, 48 h | relative to: vehicle | 107% and 110% and 98.6% and 100% and 108% |
| L444P/L444P Gaucher fibroblasts | 4-MUG hydrolysis in lysate |  | 0.5 µM, 72 h, without ISRIB | relative to: vehicle | 160% and 159% and 152% and 156% and 167% and 190% |
| L444P/L444P Gaucher fibroblasts | 4-MUG hydrolysis in lysate |  | 0.1 µM, 72 h | relative to: vehicle | 133% and 134% and 138% and 127% and 114% and 151% and 142% and 149% |
| L444P/L444P Gaucher fibroblasts | 4-MUG hydrolysis in lysate |  | 0.05 µM, 72 h | relative to: vehicle | 104% and 112% and 118% and 103% and 115% and 123% |
| alpha-galactosidase (human) |  | healthy dermal fibroblasts | 0.5 µM, with ISRIB | relative to: DMSO without ISRIB | 245% and 208% and 150% and 250% and 137% and 181% |

Sample 2 — read-out: cell-free assay; method: competition with immobilised ligand; concentration: 1 µM
Structure (SMILES): CC(=O)c1c(NS(C)(=O)=O)c2cc(-c3ccc(Cl)cc3)c(-c3ccc(Cl)cc3Cl)nc2n(C)c1=O
| target | remaining binding [%] |
| --- | --- |
| GRK3 (Homo sapiens, UniProt P35626) | 100 |
| AKT3 (Homo sapiens, UniProt Q9Y243) | 91 |
| PRKCE (Homo sapiens, UniProt Q02156) | 96 |
| PIK3CA (Homo sapiens, UniProt P42336, C420R) | 93 |
| NIM1K (Homo sapiens, UniProt Q8IY84) | 81 |
| EPHA3 (Homo sapiens, UniProt P29320) | 92 |
| MAP3K2 (Homo sapiens, UniProt Q9Y2U5) | 93 |
| ITK (Homo sapiens, UniProt Q08881) | 97 |
| IRAK4 (Homo sapiens, UniProt Q9NWZ3) | 95 |
| RET (Homo sapiens, UniProt P07949) | 93 |
| WNK2 (Homo sapiens, UniProt Q9Y3S1) | 62 |
| MAPK9 (Homo sapiens, UniProt P45984) | 67 |
| TGFBR1 (Homo sapiens, UniProt P36897) | 100 |
| FRK (Homo sapiens, UniProt P42685) | 100 |
| PIP5K1C (Homo sapiens, UniProt O60331) | 100 |
| Insulin receptor (INSR, Homo sapiens, UniProt P06213) | 73 |
| PAK4 (Homo sapiens, UniProt O96013) | 92 |
| LCK (Homo sapiens, UniProt P06239) | 100 |
| TAOK2 (Homo sapiens, UniProt Q9UL54) | 97 |
| MAPK8 (Homo sapiens, UniProt P45983) | 63 |
| EPHA6 (Homo sapiens, UniProt Q9UF33) | 93 |
| CSNK1G3 (Homo sapiens, UniProt Q9Y6M4) | 100 |
| MAP3K9 (Homo sapiens, UniProt P80192) | 100 |
| KIT (Homo sapiens, UniProt P10721, V559D) | 100 |
| Mast/stem cell growth factor receptor Kit, autoinhibited (KIT, Homo sapiens, UniProt P10721) | 100 |

Sample 3 — cell line: HaCaT; concentration: 100 µM; time: 36 h
| SMILES | viability |
| --- | --- |
| Cc1cnc(C(=O)O)c[n+]1[O-] | 79.4% |
| CNCCCC1c2ccccc2C=Cc2ccccc21 | 4.69% |
| Nc1nc(Cl)nc2c1ncn2[C@H]1C[C@H](O)[C@@H](CO)O1 | 34.3% |
| CCCOc1ccc(C(=O)OCCN(CC)CC)cc1N | 88.4% |
| C[C@@H](O)[C@H]1C(=O)N2C(C(=O)O)=C(SCCN=CN)C[C@H]12 | 96.8% |
| COC(=O)C1=C(C)NC(C)=C(C(=O)O[C@@H]2CCCN(Cc3ccccc3)C2)[C@@H]1c1cccc([N+](=O)[O-])c1 (racemic) | 22.5% |
| CCc1cc2c(cc1N1CCC(N3CCOCC3)CC1)C(C)(C)c1[nH]c3cc(C#N)ccc3c1C2=O | 13.8% |
| COc1cc2nccc(Oc3ccc(NC(=O)C4(C(=O)Nc5ccc(F)cc5)CC4)cc3)c2cc1OC | 52.4% and 25.1% |

Sample 4 — read-out: enzyme activity; action: inhibitor; concentration: 0.5 µM; relative to: control
Structure (SMILES): Cc1cncc2cccc(S(=O)(=O)N3CCCN(C(=O)CN)C[C@@H]3C)c12
| target | remaining activity [%] |
| --- | --- |
| TGFBR2 (Homo sapiens, UniProt P37173) | 132 |
| CAMKK2 (Homo sapiens, UniProt Q96RR4) | 115 |
| STK11 (Homo sapiens, UniProt Q15831) | 86.5 |
| Protein kinase C beta type, isoform beta-I (PRKCB, Homo sapiens, UniProt P05771) | 99.4 |
| Cyclin-dependent kinase 5, with p25 (CDK5, Homo sapiens, UniProt Q00535) | 94.1 |
| PRKACA (Homo sapiens, UniProt P17612) | 99.5 |
| GRK3 (Homo sapiens, UniProt P35626) | 95 |
| OXSR1 (Homo sapiens, UniProt O95747) | 99.4 |
| IKBKE (Homo sapiens, UniProt Q14164) | 95 |
| STK39 (Homo sapiens, UniProt Q9UEW8) | 95.3 |
| TGFBR1 (Homo sapiens, UniProt P36897) | 100 |
| Cyclin-dependent kinase 4, with cyclin D1 (CDK4, Homo sapiens, UniProt P11802) | 114 |
| STK10 (Homo sapiens, UniProt O94804) | 42 |
| MAP3K3 (Homo sapiens, UniProt Q99759) | 99.1 |
| CAMK2D (Homo sapiens, UniProt Q13557) | 108 |
| DAPK2 (Homo sapiens, UniProt Q9UIK4) | 103 |
| CHEK2 (Homo sapiens, UniProt O96017) | 96.2 |
| IKBKB (Homo sapiens, UniProt O14920) | 109 |
| cGMP-dependent protein kinase 1, isoform beta (PRKG1, Homo sapiens, UniProt Q13976) | 85 |
| Tyrosine-protein kinase Lyn, isoform B (LYN, Homo sapiens, UniProt P07948) | 101 |
| DAPK1 (Homo sapiens, UniProt P53355) | 97.9 |
| MAPK9 (Homo sapiens, UniProt P45984) | 106 |

Some of these lines once more (sample 3):
| SMILES | viability |
| --- | --- |
| CCc1cc2c(cc1N1CCC(N3CCOCC3)CC1)C(C)(C)c1[nH]c3cc(C#N)ccc3c1C2=O | 13.8% |
| Cc1cnc(C(=O)O)c[n+]1[O-] | 79.4% |
| C[C@@H](O)[C@H]1C(=O)N2C(C(=O)O)=C(SCCN=CN)C[C@H]12 | 96.8% |
| CNCCCC1c2ccccc2C=Cc2ccccc21 | 4.69% |
| COC(=O)C1=C(C)NC(C)=C(C(=O)O[C@@H]2CCCN(Cc3ccccc3)C2)[C@@H]1c1cccc([N+](=O)[O-])c1 (racemic) | 22.5% |
